Results collected from several papers.
Numbered parts are unrelated; each lists some results of a single study. Changes are numbered by the printed parent chain.
Chain of UniProt P00519 (whole entry, unmodified, looked up): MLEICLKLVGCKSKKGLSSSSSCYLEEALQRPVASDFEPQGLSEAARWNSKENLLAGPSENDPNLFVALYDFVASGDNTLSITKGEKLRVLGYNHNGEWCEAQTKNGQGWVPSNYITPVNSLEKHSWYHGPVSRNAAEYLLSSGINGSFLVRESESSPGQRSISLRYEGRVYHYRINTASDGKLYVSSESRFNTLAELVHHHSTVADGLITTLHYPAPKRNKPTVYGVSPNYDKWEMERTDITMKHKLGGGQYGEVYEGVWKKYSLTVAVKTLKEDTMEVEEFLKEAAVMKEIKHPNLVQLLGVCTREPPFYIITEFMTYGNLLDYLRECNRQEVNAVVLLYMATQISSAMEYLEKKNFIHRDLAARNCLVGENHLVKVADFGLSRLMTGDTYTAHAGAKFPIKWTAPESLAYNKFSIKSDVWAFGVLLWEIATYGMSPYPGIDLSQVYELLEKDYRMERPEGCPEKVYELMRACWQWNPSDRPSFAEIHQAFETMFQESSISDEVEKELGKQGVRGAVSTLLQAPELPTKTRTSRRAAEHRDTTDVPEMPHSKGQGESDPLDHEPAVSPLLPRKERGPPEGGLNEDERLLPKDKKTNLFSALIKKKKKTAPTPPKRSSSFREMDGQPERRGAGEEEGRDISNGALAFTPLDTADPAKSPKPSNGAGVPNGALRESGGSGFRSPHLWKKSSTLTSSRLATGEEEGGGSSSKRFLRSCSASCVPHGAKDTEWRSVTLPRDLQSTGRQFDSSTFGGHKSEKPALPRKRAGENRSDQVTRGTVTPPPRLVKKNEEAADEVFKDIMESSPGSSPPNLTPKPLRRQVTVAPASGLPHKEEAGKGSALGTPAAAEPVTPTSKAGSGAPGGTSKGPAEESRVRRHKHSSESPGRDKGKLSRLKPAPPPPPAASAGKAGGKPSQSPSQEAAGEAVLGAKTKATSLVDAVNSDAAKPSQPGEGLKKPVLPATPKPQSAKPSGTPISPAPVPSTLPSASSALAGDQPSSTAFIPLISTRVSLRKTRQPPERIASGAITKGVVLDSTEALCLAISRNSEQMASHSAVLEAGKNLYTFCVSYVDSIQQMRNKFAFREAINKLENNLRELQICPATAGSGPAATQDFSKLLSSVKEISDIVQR
Chain of UniProt Q9UL54 (whole entry, looked up): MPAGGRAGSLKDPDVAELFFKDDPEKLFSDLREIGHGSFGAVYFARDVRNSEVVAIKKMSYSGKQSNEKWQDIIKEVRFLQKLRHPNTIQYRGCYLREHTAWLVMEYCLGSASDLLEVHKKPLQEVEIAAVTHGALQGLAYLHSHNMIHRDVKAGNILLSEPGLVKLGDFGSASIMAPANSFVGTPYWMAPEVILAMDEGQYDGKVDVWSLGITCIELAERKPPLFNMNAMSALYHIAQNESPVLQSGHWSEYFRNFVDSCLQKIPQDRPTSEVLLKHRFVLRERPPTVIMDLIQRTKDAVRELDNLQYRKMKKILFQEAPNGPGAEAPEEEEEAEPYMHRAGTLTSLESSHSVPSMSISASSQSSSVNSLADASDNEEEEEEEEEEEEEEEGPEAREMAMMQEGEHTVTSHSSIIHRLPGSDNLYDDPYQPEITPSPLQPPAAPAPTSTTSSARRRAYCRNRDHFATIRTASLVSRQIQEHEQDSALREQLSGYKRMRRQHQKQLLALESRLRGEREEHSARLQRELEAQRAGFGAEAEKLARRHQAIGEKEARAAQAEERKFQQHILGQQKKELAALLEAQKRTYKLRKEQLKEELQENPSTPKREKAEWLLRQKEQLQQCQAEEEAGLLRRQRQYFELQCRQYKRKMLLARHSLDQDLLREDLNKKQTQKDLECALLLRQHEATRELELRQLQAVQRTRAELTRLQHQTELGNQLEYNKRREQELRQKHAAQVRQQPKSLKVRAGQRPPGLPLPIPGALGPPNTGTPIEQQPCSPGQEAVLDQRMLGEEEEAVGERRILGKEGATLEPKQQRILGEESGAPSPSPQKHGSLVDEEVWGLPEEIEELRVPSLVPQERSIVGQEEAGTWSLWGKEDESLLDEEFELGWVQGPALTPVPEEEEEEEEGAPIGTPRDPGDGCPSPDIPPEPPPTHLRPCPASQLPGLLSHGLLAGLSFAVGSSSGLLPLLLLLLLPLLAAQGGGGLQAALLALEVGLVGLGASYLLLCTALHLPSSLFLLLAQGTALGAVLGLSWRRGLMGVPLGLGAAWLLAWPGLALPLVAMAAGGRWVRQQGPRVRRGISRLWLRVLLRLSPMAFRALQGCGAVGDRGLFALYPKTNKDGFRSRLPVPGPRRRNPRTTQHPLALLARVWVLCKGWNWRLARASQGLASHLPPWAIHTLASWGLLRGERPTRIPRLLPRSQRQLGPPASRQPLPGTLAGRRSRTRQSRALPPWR
Chain of UniProt Q8NG66 (whole entry, looked up): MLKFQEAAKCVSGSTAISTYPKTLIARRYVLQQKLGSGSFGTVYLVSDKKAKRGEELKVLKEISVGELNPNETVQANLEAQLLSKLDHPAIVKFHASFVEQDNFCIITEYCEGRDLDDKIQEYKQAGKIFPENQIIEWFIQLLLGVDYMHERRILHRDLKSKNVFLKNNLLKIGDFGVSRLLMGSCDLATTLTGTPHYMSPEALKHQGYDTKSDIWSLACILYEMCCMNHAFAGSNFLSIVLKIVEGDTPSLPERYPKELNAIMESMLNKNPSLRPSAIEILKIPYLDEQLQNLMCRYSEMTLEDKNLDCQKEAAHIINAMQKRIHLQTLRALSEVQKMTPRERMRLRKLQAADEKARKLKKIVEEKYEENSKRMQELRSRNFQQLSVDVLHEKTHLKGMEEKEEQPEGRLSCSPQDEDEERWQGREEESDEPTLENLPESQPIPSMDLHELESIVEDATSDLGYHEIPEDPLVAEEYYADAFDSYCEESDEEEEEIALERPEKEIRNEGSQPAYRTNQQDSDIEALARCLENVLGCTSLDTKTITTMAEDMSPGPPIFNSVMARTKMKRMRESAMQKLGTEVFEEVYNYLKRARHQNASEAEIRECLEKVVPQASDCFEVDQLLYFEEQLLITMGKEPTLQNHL
Chain of UniProt P35968 (whole entry, looked up): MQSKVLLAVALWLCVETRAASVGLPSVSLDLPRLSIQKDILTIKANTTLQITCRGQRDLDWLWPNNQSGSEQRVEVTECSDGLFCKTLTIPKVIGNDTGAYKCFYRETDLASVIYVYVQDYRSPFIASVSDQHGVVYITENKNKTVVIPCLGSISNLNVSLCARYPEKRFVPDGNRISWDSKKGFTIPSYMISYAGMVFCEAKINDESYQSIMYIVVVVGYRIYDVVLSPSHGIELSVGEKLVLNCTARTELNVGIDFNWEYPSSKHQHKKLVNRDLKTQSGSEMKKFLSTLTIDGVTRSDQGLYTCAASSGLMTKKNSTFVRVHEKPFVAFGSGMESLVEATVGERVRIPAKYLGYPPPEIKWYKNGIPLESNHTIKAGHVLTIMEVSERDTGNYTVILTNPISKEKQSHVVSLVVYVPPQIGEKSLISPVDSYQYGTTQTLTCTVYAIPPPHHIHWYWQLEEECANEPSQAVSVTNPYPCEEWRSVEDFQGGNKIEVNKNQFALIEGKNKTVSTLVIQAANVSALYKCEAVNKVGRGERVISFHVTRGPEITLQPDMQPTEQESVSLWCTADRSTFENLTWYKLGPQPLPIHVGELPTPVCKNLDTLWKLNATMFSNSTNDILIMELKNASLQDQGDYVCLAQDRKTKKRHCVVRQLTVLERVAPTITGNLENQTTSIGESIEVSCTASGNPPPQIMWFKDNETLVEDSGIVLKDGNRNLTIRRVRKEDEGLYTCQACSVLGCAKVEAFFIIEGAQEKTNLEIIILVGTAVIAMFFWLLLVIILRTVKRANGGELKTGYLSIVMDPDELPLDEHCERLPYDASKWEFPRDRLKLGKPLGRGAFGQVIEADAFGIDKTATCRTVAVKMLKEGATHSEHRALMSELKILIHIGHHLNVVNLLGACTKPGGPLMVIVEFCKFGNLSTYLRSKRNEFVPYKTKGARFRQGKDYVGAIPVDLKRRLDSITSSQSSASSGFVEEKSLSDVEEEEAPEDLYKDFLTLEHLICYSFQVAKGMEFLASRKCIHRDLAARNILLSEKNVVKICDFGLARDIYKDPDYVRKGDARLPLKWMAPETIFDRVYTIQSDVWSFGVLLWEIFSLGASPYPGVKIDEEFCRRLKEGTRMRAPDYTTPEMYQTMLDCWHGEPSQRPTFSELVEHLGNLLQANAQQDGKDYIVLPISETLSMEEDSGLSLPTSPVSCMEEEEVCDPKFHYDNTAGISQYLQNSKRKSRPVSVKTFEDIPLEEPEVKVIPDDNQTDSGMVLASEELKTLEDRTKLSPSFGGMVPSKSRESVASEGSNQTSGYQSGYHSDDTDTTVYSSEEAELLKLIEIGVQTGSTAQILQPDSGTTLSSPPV
Chain of UniProt O60331 (whole entry, looked up): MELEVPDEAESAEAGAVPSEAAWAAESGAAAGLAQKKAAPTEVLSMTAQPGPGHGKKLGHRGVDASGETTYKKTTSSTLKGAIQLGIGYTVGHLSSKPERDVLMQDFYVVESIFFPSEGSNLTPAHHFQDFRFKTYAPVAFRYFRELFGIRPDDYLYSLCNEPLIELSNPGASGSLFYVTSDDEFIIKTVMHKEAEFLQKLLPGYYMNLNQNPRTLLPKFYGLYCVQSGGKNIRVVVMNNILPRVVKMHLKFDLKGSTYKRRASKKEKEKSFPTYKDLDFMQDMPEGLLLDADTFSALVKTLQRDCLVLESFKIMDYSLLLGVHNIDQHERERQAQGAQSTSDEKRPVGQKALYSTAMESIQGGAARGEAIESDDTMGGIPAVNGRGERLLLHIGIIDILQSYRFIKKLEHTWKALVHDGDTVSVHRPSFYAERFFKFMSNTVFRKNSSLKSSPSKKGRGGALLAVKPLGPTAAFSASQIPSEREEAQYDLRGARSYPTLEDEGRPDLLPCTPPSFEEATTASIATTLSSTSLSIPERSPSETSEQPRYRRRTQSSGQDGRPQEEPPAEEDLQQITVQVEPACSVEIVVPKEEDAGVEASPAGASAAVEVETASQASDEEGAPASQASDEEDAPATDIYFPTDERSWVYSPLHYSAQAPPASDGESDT

Series 1 — method: RNA Bind-n-Seq; form: RNA; sample: in vitro; tested at: 20 nM; notes: 6-mer, flanks averaged, single round; with: 150 mM KCl; baseline: input library; direction: higher = stronger binding
Target: TAR DNA-binding protein 43, full length, His tag (TARDBP, Homo sapiens, UniProt Q13148, residues 1-414)
Sequence	6-mer enrichment (R)
AUCAGC	0.637
AGUAGC	0.813
AUCGUG	0.792
GUAGCA	0.884
AUUAAG	0.652
UAAACC	0.588
AGGCGA	1.49
UCGGCA	0.834

Series 2 — target: CCNE2, cyclin fold, Cln2 fusion (human); method: yeast growth competition, sequencing; sample: yeast; notes: weak parent motif; baseline: not given; direction: higher = stronger binding
Parent: ORC1 docking peptide (human); PRARKRLELGNLG; partner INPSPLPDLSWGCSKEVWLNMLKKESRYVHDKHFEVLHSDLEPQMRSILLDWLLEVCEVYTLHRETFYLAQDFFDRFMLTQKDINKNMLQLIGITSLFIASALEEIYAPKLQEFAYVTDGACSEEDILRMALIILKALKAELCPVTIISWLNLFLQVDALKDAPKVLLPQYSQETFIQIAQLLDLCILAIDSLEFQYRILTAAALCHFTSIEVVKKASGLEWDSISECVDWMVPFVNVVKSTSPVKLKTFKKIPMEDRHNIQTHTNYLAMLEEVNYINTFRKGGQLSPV
Substitution	normalised enrichment score
IRARKRLELGNLG [P1I]	0.703
PRARKRLELGNCG [L12C]	0.867
PRARKRLELGGLG [N11G]	1.15
PNARKRLELGNLG [R2N]	0.899
PRARGRLELGNLG [K5G]	0.866
PRCRKRLELGNLG [A3C]	1.71
PRARKRLELGCLG [N11C]	1.11
PRARKRLELNNLG [G10N]	0.556

Series 3 — cell line: A-375; tested at: 100 µM; time: 36 h
Structure (SMILES)	viability [%]
CC(C(O)c1ccc(O)cc1)N1CCC(Cc2ccccc2)CC1 (stereo not drawn)	60.9
Cc1cc(C)cc(OCC2CNC(=O)O2)c1 (stereo not drawn)	117
O=C(CCCCCCC(=O)Nc1ccccc1)NO	11.9
O=C(O)[C@H](CC(=O)N1C[C@H]2CCCC[C@H]2C1)Cc1ccccc1	129
Cc1cc(NS(=O)(=O)c2ccc(N)cc2)nc(C)n1	109

Series 4 — method: competition with immobilised ligand; tested at: 1 µM
Compound: CS(=O)(=O)c1cc(C2(NC(=O)c3cncc4c3cnn4-c3ccc(F)cc3)CC2)ccn1
target	effect on	remaining binding
Mitogen-activated protein kinase kinase kinase 12 (MAP3K12, Homo sapiens, UniProt Q12852)	cell-free assay	100%
Mitogen-activated protein kinase kinase kinase 15 (MAP3K15, Homo sapiens, UniProt Q6ZN16)	cell-free assay	67%
Mitogen-activated protein kinase kinase kinase 5 (MAP3K5, Homo sapiens, UniProt Q99683)	cell-free assay	97%
Cyclin-dependent kinase 11B (CDK11B, Homo sapiens, UniProt P21127)	cell-free assay	81%
Tyrosine-protein kinase ABL1, non-phosphorylated (ABL1, Homo sapiens, UniProt P00519, F317I)	binding	98%
Serine/threonine-protein kinase LATS2 (LATS2, Homo sapiens, UniProt Q9NRM7)	cell-free assay	100%
Mitogen-activated protein kinase kinase kinase 1 (MAP3K1, Homo sapiens, UniProt Q13233)	cell-free assay	100%
Phosphatidylinositol 4-phosphate 5-kinase type-1 gamma (PIP5K1C, Homo sapiens, UniProt O60331)	cell-free assay	95%
Activin receptor type-2A (ACVR2A, Homo sapiens, UniProt P27037)	cell-free assay	98%
Tyrosine-protein kinase ABL1, phosphorylated (ABL1, Homo sapiens, UniProt P00519, F317L)	cell-free assay	68%
Vascular endothelial growth factor receptor 2 (KDR, Homo sapiens, UniProt P35968)	cell-free assay	77%
Serine/threonine-protein kinase 35 (STK35, Homo sapiens, UniProt Q8TDR2)	cell-free assay	100%
STE20/SPS1-related proline-alanine-rich protein kinase (STK39, Homo sapiens, UniProt Q9UEW8)	cell-free assay	58%
Receptor-interacting serine/threonine-protein kinase 2 (RIPK2, Homo sapiens, UniProt O43353)	cell-free assay	53%
Serine/threonine-protein kinase TAO2 (TAOK2, Homo sapiens, UniProt Q9UL54)	cell-free assay	97%
Ephrin type-B receptor 1 (EPHB1, Homo sapiens, UniProt P54762)	cell-free assay	91%
Serine/threonine-protein kinase pim-3 (PIM3, Homo sapiens, UniProt Q86V86)	cell-free assay	100%
Serine/threonine-protein kinase Nek11 (NEK11, Homo sapiens, UniProt Q8NG66)	cell-free assay	100%
Protein kinase C epsilon type (PRKCE, Homo sapiens, UniProt Q02156)	cell-free assay	100%
Ribosomal protein S6 kinase alpha-1, C-terminal kinase domain (RPS6KA1, Homo sapiens, UniProt Q15418)	cell-free assay	79%
MAP/microtubule affinity-regulating kinase 3 (MARK3, Homo sapiens, UniProt P27448)	cell-free assay	100%

A few entries again (series 2):
Substitution	normalised enrichment score
PRARKRLELGNCG [L12C]	0.867
PRARKRLELGCLG [N11C]	1.11
PRARGRLELGNLG [K5G]	0.866
PRARKRLELNNLG [G10N]	0.556
PNARKRLELGNLG [R2N]	0.899
